Results pooled from the literature.
Numbered parts are unrelated; each lists some results of a single study.

Block 1 — technique: protein-binding microarray; form: double-stranded DNA, one strand shown; matrix: in vitro; tested at: 2200 nM top; notes: 60-bp whole probe; with: salmon DNA 0.4 mg/ml; reference: random background probes; direction: higher = stronger binding; all sequences stand within: GCCTAGCAC … GTCTTGATTCGCTTGACGCTGCTG
Target: Interferon regulatory factor 7, full length, phosphomimetic (IRF7, Homo sapiens, UniProt Q92985, residues 1-503, S471D/S472D/S475D/S476D/S477D/S483D/S484D/S487D)
Target sequence (chain): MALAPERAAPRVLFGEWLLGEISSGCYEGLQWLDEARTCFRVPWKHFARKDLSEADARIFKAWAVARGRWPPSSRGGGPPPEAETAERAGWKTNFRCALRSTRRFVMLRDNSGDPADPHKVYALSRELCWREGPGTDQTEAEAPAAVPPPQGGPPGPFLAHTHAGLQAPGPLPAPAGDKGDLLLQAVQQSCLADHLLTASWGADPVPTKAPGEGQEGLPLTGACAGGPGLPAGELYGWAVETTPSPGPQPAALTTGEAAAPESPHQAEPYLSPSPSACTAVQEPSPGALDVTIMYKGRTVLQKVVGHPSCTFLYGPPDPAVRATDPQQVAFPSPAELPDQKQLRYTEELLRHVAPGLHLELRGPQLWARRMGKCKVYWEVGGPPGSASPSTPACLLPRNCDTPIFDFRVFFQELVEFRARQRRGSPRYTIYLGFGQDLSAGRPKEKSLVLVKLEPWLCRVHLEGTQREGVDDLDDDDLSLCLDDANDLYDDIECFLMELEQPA
| Strand | fitted relative affinity [z-score] |
| --- | --- |
| GACGGTATCGACTATCGGCACGTGCTA | -0.164 |
| TTAGGTCTCGGCCTCGGTTAGTGCTAG | 0.0303 |
| AGATATTCAGGTATATAAAGGTGCTAG | -0.125 |
| CCAGCTCTTTCGTTACTTCCTGTGCTA | 3.14 |
| TTAGATTTCAGTACCGATTAGTGCTAG | 0.494 |

Block 2 — technique: protein-binding microarray; form: double-stranded DNA, one strand shown; matrix: in vitro; tested at: 0.8 µM; notes: whole 60-bp probe, no competitor; direction: higher = stronger binding
Target: Centromere-binding protein 1, full length, N-terminal tag (CBF1, Saccharomyces cerevisiae, UniProt P17106, residues 1-351)
UniProt P17106, sequence (whole entry, looked up): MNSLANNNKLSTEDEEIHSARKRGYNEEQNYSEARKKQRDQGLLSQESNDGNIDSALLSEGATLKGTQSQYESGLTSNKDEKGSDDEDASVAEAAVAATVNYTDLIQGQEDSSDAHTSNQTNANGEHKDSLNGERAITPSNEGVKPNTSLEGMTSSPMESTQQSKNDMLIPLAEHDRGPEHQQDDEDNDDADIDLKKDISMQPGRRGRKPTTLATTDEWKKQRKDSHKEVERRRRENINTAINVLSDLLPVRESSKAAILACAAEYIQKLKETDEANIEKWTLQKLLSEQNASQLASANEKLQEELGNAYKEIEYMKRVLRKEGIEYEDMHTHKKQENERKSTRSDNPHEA
| Strand | fluorescence intensity |
| --- | --- |
| GAAACTTCTAGGTCCAATGTGACCATTTTGCAGTAGGTCTTGATTCGCTTGACGCTGCTG | 639 a.u. |
| CTACAAATAATATGAGTCGTGACGACATCAAATTTCGTCTTGATTCGCTTGACGCTGCTG | 683 a.u. |
| CCTAACTACTATAAGCACGACCTATAGCTTCGTACAGTCTTGATTCGCTTGACGCTGCTG | 507 a.u. |
| GAAATTAATCGTTTATACGTGACGTTGACGATGTAGGTCTTGATTCGCTTGACGCTGCTG | 588 a.u. |

Block 3 — technique: protein binding microarray; form: double-stranded DNA, one strand shown; matrix: in vitro; tested at: not given; reference: not given; direction: higher = stronger binding
Target: Histone acetyltransferase KAT6A, both winged helices, GST fusion (KAT6A, Homo sapiens, UniProt Q92794, residues 1-181)
Notes: 8-mer, flanks averaged, mean of 2 arrays, mostly near background
Residues (chain): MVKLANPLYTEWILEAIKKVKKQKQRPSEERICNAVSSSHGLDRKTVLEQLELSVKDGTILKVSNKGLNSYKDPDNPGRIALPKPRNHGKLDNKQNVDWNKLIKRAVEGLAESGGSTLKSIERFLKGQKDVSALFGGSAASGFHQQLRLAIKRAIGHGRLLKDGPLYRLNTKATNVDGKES
| Strand | E-score |
| --- | --- |
| ACAACATA | -0.0104 |
| GAGTACCA | -0.0862 |
| CCCTCTCG | -0.143 |
| CGCATCGC | 0.28 |
| CACTTCCG | 0.0593 |
| ATATACCG | 0.188 |

Further values, each from its own experiment
| Substance | target | assay | system | conditions | scale | measurement | result |
| --- | --- | --- | --- | --- | --- | --- | --- |
| PhoQ, residues 284 288 289 292 302 303 NLALSC | PhoP, residues 12 14 15 18 19 NMSFL (Escherichia coli, UniProt P23836) | Sort-seq, item: YFP reporter | E. coli | PhoQ-PhoP variant library, with: 10 µM Mg2+ | reference: high Mg2+ state, higher = stronger signaling | fold induction | 1.4 |
